Experimental data collected from several papers.
Compare with care: the assays were run in different laboratories. ± gives the spread as reported.
Cell line: HEK293

Compound	read-out	technique	measured	time	with	IC50
COc1cc(CNC(=O)C[C@H](C)CCC=C(C)C)ccc1OCc1cn(-c2ccc(Cl)c(Cl)c2)nn1	cytotoxicity	–	–	–	–	696 µM
CCCCCCCCCCCCCCCCCC(=O)N[C@@H](CCCCN)C(=O)N[C@@H](CCCCN)C(=O)N[C@@H](CCCCN)C(=O)N[C@@H](CCCCN)C(=O)N[C@@H](CCCCN)C(N)=O	cell growth or viability	resazurin	–	–	–	> 32 mg/L
COC(=O)C1=CO[C@@H](C)[C@@H]2Cn3ccc4c5ccccc5nc-4c3C[C@H]12	cytotoxicity	–	–	–	–	> 200 µM
NC(=O)CNC(=O)[C@@H]1CCCN1C(=O)[C@H](Cc1ccc(O)cc1)NC(=O)[C@H](Cc1c[nH]c2ccccc12)NC(=O)[C@@H](Cc1c[nH]c2ccccc12)NC(=O)[C@H](Cc1c[nH]cn1)NC(=O)[C@H](CO)NC(=O)[C@H](Cc1c[nH]c2ccccc12)NC(=O)[C@H](Cc1c[nH]cn1)NC(=O)[C@@H]1CCC(=O)N1	cell growth or viability	SRB	–	–	–	0.0005 µM
CCn1cc(/C=C/c2ccc3ccccc3[n+]2CC)c2ccccc21	cell growth or viability	MTT	–	24 h	–	11.6 µM
CC(=O)[C@@H]1CCCN1C(=O)[C@@H]1CCCN1C(=O)[C@H](Cc1ccccc1)NC(=O)OC(C)(C)C	cell growth or viability	SRB	–	–	–	273 µM
FC(F)(F)c1c(-c2ccc(Br)cc2)noc1-c1cccs1	cell growth or viability	MTT	–	48 h	–	112 µM
Cc1nc(-c2ccc(Cl)cc2)nc(N2CCC(C)(N)CC2)c1Cc1ccccc1	cell growth or viability	WST-1	–	72 h	–	4.5 µM
CCCCCCCCCCCCCCCCOc1c(O)cc(C(=O)O[C@@H]2Cc3c(O)cc(O)cc3O[C@@H]2c2cc(O)c(O)c(O)c2)cc1O	cell growth or viability	CCK-8	–	24 h	–	> 150 µM
CCN(CC)CCN1C(=O)c2ccc3c4cccc5c(N6CCNCC6)ccc(c6ccc(c2c36)C1=O)c54	cell growth or viability	SRB	–	72 h	–	197 µM
CC(=O)Oc1ccccc1C(=O)[O][Pt]([NH2])([NH2])([Cl])([Cl])[O]C(=O)C(Cl)Cl	cell growth or viability	MTT	–	72 h	–	0.09 µM
N=C(N)NCCC[C@@H](NC(=O)[C@H](Cc1c[nH]cn1)NC(=O)[C@H](CO)NC(=O)[C@H](Cc1c[nH]c2ccccc12)NC(=O)[C@H](Cc1c[nH]cn1)NC(=O)[C@@H]1CCC(=O)N1)C(=O)N[C@@H](Cc1c[nH]c2ccccc12)C(=O)N[C@@H](Cc1ccc(O)cc1)C(=O)N1CCC[C@H]1C(=O)NCC(N)=O	cell growth or viability	SRB	–	–	–	0.0075 µM
CC(C)c1cccc(C(C)C)c1-n1c2c([n+](-c3c(C(C)C)cccc3C(C)C)[c]1[Cu-][Cl])-c1cccc3cccc-2c13	cell growth or viability	MTT	–	72 h	–	3.2 µM
CCCCCCCCCCCCCC(=O)N[C@@H](CCCCN)C(=O)N[C@@H](CCCCN)C(=O)N[C@@H](CCCCN)C(=O)N[C@@H](CCCCN)C(=O)N[C@@H](CCCCN)C(N)=O	cell growth or viability	resazurin	–	–	–	> 32 mg/L
COc1ccc(CN2C(=O)C(=O)c3cc(NC(C)=O)ccc32)cc1	cytotoxicity	MTT	–	48 h	–	17.6 ± 5.07 µM
Nc1ccccc1NC(=O)c1cnccn1	cell growth or viability	MTT	–	48 h	–	141 µM
Cc1cc(NC(=O)[C@H](O)c2cc(F)cc(F)c2)ccc1-c1cnc(N)c(C(=O)NC(C)C)c1	–	Western blot	ATF4	4 h	1 µM tunicamycin	0.088 µM
CSc1ccc(-c2noc(-c3cccs3)c2C(F)(F)F)cc1	cell growth or viability	MTT	–	48 h	–	103 µM

Compound	read-out	technique	measured	time	with	IC50
O=C1c2ccc3c4cccc5cccc(c6ccc(c2c36)C(=O)N1CCN1CCCCC1)c54	cell growth or viability	SRB	–	72 h	–	247 µM
CN1CCCNC(=O)CCC(=O)NCCCN(C)CCCNc2cccc3c2C(=O)c2cccc(c2C3=O)NCCC1	cell growth or viability	CCK-8	–	48 h	–	> 20 µM
CC(=O)OC[C@H]1O[C@@H](n2cc(CSc3nc4ccccc4n3Cc3cn([C@@H]4O[C@H](COC(C)=O)[C@@H](OC(C)=O)C(OC(C)=O)[C@H]4OC(C)=O)nn3)nn2)[C@H](OC(C)=O)C(OC(C)=O)[C@@H]1OC(C)=O (stereo in doubt)	cell growth or viability	MTT	–	–	–	12.5 mg/L
CCCC(CCC)C(=O)[O][Pt]([NH2])([NH2])([Cl])([Cl])[O]C(=O)c1ccccc1OC(C)=O	cell growth or viability	MTT	–	72 h	–	0.59 µM
COC(=O)[C@H](C(C)C)N(C)C(=O)[C@@H]1CCCN1C(=O)[C@H](C)N(C)C(=O)OC(C)(C)C	cell growth or viability	SRB	–	–	–	1210 µM
CCCCCCCCCCCCCCCCCC(=O)N[C@@H](CCCN)C(=O)N[C@@H](CCCN)C(=O)N[C@@H](CCCN)C(=O)N[C@@H](CCCN)C(=O)N[C@@H](CCCN)C(N)=O	cell growth or viability	resazurin	–	–	–	20.3 mg/L
CC(=O)Oc1ccccc1C(=O)[O][Pt]([NH2])([NH2])([Cl])([Cl])[O]C(=O)CCCc1ccccc1	cell growth or viability	MTT	–	72 h	–	0.11 µM
CN1CCCNC(=O)c2cccc(c2)C(=O)NCCCN(C)CCCNc2cccc3c2C(=O)c2cccc(c2C3=O)NCCC1	cell growth or viability	CCK-8	–	48 h	–	1.4 µM
[Cl][Cu-][c]1n(-c2c(C(c3ccccc3)c3ccccc3)cc(C(c3ccccc3)c3ccccc3)cc2C(c2ccccc2)c2ccccc2)c2c([n+]1-c1c(C(c3ccccc3)c3ccccc3)cc(C(c3ccccc3)c3ccccc3)cc1C(c1ccccc1)c1ccccc1)-c1cccc3cccc-2c13	cell growth or viability	MTT	–	72 h	–	> 50 µM
CCCCCCCCCCCCOc1c(O)cc(C(=O)O[C@@H]2Cc3c(O)cc(O)cc3O[C@@H]2c2cc(O)c(O)c(O)c2)cc1O	cell growth or viability	CCK-8	–	24 h	–	> 150 µM
CCN(CC)CCN1C(=O)c2ccc3c4cccc5c(NCCN)ccc(c6ccc(c2c36)C1=O)c54	cell growth or viability	SRB	–	72 h	–	204 µM
CCCC(CCC)C(=O)[O][Pt]([NH2])([NH2])([Cl])([Cl])[O]C(=O)C(C)c1ccc(CC(C)C)cc1 (stereo not drawn)	cell growth or viability	MTT	–	72 h	–	0.47 µM
C=C[CH2][Pd-]([Cl])[Cl].Cc1cc(C)c(-n2c[n+](-c3c(C)cc(C)cc3C)c3c2-c2cccc4cccc-3c24)c(C)c1	cell growth or viability	MTT	–	72 h	–	1.8 µM
COC(=O)[C@@H](NC(=O)[C@@H](NC(=O)OC(C)(C)C)C(C)C)C(C)C	cell growth or viability	SRB	–	–	–	238 µM
CCCCCCCCCCOc1c(O)cc(C(=O)O[C@@H]2Cc3c(O)cc(O)cc3O[C@@H]2c2cc(O)c(O)c(O)c2)cc1O	cell growth or viability	CCK-8	–	24 h	–	> 150 µM
O=C1NCC(Cc2ccccc2)N(CC2CCCN2CC(CC2CCCCC2)N2CC(Cc3ccc(O)cc3)N(CCc3ccccc3)C(=O)C2=O)C1=O (stereo not drawn)	cell growth or viability	–	–	72 h	–	> 100 µM
CC(C)c1cccc(C(C)C)c1-n1c2c([n+](-c3c(C(C)C)cccc3C(C)C)[c]1[Au-][Cl])-c1cccc3cccc-2c13	cell growth or viability	MTT	–	72 h	–	31 µM
CCCCCCCCCCCCCCCCCCOc1c(O)cc(C(=O)O[C@@H]2Cc3c(O)cc(O)cc3O[C@@H]2c2cc(O)c(O)c(O)c2)cc1O	cell growth or viability	CCK-8	–	24 h	–	> 150 µM

A few entries again:
Compound	read-out	technique	measured	time	with	IC50
CCCCCCCCCCCCOc1c(O)cc(C(=O)O[C@@H]2Cc3c(O)cc(O)cc3O[C@@H]2c2cc(O)c(O)c(O)c2)cc1O	cell growth or viability	CCK-8	–	24 h	–	> 150 µM
CCN(CC)CCN1C(=O)c2ccc3c4cccc5c(NCCN)ccc(c6ccc(c2c36)C1=O)c54	cell growth or viability	SRB	–	72 h	–	204 µM
